Measured values collected from several papers.
Protocols differ between the studies behind these lines. Values joined by “and” are separate records of one study, mostly repeats; a detail may differ.
Target: D(1A) dopamine receptor (DRD1, Homo sapiens, UniProt P21728)

Structure (SMILES)	assay	system	setting	how to read	measurement	result
Cc1sc2c(c1C)C(c1ccc(Cl)cc1)=NC(CC(=O)OC(C)(C)C)c1nnc(C)n1-2 (centres unmarked)	ligand displacement, radioligand		1 µM		remaining binding	102%
CCc1nnc(-c2c(OC)cc(-c3cnc4cc(-c5cnn(C)c5)ccn34)cc2OC)o1	antagonist radioligand, radioligand binding		10 µM, SafetyScreen44 D1 replicate 2	lower = stronger displacement	remaining binding	94.4%
C/C(=N\OCCCN1CCCCC1)c1ccc(C(F)(F)F)cc1	agonist, cAMP		10 µM		activation	9.51%
CCCO[C@H]1[C@H](O)[C@@H](N)[C@@H](O[C@H]2[C@H](O[C@@H]3O[C@H](CO)[C@@H](O[C@H]4O[C@@H](CN)[C@@H](O)[C@H](O)[C@H]4N)[C@H]3O)[C@@H](O)[C@H](N)C[C@@H]2N)O[C@@H]1CO	radioligand binding		10 µM, 1% DMSO		specific binding	5%
O=C(O)c1ccc(-c2nc(-c3ccccc3Cl)c3sccn23)cc1	radioligand binding, safety screen panel		10 µM	reference: control	specific binding	97.7% and 96.1%
CCN(CC)CCOc1ccc(-c2nnn(Cc3ccc(OC)cc3)c2N)cc1	radioligand binding	HEK293	10 µM, safety profiling		inhibition	45.4%
CN[C@@H]1[C@H](O)[C@H](NC)[C@H]2O[C@]3(O)[C@H](O[C@@H]2[C@H]1O)O[C@H](C)C[C@H]3NC(=O)Cc1ccc(Cl)cn1	ligand displacement, radioligand		10 µM		inhibition	1%
CS(C)(=O)=Nc1ccc(-c2ccc(-c3nc4cc(O[C@@H]5CO[C@H]6[C@@H]5OC[C@H]6O)[nH]c4cc3F)cc2)cc1	calcium signal, antagonist		10 µM		inhibition	-28%
N[C@H](C(=O)N1CCCC1)C1CCN(c2nccc3c(-c4ncc(Cl)cc4Cl)cccc23)CC1	functional response, antagonist		10 µM		inhibition	-3%
COc1ccc(F)cc1S(=O)(=O)Nc1cnc2c(c1)C(=O)NCCO2	ligand displacement, radioligand		10 µM		inhibition	0%
COc1ccccc1N1CCN(CCCCN2CCCc3ccccc3C2=O)CC1	radioligand binding		concentration not given, with: [3H]SCH23390		inhibition	43.6%
Cc1cc(-c2ccc3ccccc3c2)nnc1NCCN1CCN(C)CC1	antagonist		10000 nM	reference: control	activity	0%
C[C@H](NCc1ccc(-c2ccc(C(F)(F)F)cc2)cc1)C(N)=O	radioligand binding, SafetyScreen panel		1 µM, species human, with: 1.40 nM [3H]SCH-23390		inhibition	2%
Cc1cc(Nc2nc(C[C@@]3(C(=O)O)CCN(Cc4cccc(Cl)c4F)[C@H](C)C3)cc(C)c2F)[nH]n1	inhibitor		10 µM		inhibition	1.44%

A few entries again:
Structure (SMILES)	assay	system	setting	how to read	measurement	result
Cc1cc(Nc2nc(C[C@@]3(C(=O)O)CCN(Cc4cccc(Cl)c4F)[C@H](C)C3)cc(C)c2F)[nH]n1	inhibitor		10 µM		inhibition	1.44%
Cc1cc(-c2ccc3ccccc3c2)nnc1NCCN1CCN(C)CC1	antagonist		10000 nM	reference: control	activity	0%
